Measured values collected from several papers.
A part holds a random share of what one study measured. “And” joins repeats or separate records; there may be more than shown. Values after ≈ are worked out from the molar mass of the structure shown.
Sequence of UniProt Q92772 (whole entry, looked up): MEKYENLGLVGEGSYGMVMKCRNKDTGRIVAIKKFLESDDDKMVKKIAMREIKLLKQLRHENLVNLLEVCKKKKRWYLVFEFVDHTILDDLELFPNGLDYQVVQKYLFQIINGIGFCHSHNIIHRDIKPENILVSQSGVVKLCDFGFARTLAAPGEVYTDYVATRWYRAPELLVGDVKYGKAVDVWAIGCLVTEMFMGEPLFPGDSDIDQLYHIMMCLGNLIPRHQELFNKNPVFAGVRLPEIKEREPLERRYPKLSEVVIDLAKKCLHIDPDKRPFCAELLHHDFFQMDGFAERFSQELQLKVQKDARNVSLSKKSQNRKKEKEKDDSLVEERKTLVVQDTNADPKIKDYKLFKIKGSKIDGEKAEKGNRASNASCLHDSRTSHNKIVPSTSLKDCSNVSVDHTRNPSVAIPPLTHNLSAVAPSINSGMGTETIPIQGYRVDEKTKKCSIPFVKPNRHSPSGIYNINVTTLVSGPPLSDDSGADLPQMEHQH
Sequence of UniProt Q15208 (whole entry, looked up): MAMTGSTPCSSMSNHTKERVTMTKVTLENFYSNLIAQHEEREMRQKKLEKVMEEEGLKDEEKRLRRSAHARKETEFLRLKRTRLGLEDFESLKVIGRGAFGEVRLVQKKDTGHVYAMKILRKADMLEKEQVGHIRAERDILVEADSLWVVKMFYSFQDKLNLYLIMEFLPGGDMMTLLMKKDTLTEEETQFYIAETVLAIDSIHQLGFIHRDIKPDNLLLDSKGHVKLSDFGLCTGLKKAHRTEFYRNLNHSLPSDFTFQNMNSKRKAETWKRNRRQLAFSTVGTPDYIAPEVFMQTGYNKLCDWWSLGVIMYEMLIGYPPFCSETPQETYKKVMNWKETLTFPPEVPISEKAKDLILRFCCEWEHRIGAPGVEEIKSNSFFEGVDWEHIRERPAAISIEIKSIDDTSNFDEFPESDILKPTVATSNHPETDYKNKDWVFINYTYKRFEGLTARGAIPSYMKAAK
Sequence of UniProt Q9Y6E0 (whole entry, looked up): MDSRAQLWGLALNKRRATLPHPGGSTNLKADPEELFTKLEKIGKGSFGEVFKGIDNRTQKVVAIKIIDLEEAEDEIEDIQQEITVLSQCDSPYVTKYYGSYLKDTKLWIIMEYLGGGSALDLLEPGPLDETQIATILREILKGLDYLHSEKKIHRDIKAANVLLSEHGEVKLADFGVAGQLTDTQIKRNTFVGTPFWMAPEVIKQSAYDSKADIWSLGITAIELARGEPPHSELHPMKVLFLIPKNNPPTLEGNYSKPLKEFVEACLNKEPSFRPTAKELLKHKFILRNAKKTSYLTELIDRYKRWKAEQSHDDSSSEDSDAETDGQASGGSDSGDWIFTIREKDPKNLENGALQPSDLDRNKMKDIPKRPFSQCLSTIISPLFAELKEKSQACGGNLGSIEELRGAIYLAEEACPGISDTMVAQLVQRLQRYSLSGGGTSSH
Sequence of UniProt O00444 (whole entry, looked up): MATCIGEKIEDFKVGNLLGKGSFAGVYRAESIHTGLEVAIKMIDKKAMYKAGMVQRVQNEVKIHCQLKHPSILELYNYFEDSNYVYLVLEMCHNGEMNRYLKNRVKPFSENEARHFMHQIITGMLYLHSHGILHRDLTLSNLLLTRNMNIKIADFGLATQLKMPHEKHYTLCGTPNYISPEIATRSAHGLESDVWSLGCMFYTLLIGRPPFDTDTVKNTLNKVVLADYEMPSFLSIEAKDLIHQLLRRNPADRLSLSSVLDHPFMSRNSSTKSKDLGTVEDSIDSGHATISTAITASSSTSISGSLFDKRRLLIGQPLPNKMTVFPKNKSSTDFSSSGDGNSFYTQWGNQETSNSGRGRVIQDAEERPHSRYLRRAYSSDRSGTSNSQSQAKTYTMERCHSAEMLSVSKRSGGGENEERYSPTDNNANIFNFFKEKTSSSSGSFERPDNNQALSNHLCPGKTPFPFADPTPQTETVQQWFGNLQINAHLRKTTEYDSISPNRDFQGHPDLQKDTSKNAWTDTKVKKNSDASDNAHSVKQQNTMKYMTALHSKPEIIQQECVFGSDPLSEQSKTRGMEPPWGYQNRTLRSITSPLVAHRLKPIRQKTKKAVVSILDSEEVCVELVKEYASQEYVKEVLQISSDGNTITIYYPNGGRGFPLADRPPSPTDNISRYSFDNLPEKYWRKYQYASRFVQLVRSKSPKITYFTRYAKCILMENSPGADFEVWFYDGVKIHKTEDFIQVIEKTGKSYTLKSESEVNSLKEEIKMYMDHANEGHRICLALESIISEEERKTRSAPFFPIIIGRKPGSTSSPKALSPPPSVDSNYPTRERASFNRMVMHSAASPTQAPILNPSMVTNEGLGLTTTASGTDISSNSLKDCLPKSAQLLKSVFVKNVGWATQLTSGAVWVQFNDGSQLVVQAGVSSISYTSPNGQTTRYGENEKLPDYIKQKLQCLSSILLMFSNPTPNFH
Sequence of UniProt Q5S007 (whole entry, looked up): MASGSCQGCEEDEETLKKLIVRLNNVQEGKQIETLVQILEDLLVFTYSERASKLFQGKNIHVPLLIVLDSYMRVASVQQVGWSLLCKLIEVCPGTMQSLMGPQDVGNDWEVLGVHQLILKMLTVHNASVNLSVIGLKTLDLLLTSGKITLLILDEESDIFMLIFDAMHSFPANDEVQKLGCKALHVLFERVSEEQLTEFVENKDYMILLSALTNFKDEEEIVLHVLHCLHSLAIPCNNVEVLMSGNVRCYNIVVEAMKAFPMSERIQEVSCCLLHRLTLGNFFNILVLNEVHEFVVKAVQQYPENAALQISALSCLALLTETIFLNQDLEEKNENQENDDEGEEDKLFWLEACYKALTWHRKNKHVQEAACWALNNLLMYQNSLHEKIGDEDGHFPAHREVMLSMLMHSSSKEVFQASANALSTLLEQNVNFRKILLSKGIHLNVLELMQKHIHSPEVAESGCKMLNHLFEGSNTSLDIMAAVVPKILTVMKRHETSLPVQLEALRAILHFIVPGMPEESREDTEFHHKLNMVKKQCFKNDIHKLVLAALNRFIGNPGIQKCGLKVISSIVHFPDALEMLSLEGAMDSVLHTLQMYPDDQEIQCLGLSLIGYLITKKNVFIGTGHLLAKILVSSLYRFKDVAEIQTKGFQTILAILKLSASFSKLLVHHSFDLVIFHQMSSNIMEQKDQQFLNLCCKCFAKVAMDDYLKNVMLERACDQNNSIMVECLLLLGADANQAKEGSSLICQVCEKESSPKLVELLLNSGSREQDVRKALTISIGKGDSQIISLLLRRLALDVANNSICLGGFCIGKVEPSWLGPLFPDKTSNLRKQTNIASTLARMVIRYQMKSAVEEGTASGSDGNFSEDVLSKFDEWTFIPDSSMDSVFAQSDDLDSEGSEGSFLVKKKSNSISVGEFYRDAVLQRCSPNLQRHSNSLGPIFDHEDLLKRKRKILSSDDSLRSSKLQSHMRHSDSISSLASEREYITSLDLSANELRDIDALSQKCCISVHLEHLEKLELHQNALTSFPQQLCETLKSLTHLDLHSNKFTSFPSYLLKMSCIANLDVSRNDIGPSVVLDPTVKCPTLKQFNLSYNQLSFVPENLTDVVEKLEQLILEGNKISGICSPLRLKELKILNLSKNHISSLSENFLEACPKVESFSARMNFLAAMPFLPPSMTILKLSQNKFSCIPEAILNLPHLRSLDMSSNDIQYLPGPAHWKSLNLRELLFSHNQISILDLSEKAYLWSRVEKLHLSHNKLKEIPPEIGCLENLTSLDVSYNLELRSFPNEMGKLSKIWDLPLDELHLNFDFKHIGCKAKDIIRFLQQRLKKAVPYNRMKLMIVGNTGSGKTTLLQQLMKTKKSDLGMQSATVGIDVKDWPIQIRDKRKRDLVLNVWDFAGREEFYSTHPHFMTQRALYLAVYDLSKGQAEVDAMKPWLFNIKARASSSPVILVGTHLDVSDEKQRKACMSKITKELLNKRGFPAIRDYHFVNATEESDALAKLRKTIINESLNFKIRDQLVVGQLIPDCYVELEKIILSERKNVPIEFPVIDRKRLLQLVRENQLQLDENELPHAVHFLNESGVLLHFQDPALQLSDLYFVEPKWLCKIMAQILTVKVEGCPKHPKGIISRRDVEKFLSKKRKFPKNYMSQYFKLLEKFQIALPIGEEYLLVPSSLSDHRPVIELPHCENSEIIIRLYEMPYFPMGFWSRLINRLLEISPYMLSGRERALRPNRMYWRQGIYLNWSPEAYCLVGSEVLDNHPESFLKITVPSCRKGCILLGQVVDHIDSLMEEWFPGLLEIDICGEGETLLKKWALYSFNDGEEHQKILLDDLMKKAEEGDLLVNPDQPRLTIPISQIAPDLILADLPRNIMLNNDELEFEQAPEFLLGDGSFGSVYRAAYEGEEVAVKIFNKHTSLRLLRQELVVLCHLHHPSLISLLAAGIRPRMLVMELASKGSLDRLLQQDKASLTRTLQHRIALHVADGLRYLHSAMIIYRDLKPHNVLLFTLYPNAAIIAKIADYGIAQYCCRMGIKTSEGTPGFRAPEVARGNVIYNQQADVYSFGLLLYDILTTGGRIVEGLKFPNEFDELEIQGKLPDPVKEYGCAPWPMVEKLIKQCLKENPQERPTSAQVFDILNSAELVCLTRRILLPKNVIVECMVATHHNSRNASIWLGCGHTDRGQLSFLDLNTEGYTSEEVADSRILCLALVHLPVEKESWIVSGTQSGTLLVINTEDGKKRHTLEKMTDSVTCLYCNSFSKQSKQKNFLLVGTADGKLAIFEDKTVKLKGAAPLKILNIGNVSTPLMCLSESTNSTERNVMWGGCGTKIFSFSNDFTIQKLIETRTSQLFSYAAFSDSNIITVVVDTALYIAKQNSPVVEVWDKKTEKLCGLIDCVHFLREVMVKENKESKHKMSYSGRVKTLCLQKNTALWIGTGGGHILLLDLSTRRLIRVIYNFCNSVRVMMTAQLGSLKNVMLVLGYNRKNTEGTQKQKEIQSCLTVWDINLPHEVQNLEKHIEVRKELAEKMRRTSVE

Sample 1 — organism: Staphylococcus aureus; strain: USA300; endpoint: MIC
SMILES: CCCCC[C@@H](O)CC(=O)N[C@@H]1C(=O)N[C@H](CCCNC(=N)N)C(=O)N[C@@H](CO)C(=O)NCC(=O)N(C)[C@H](Cc2ccccc2)C(=O)N[C@@H](CC(C)C)C(=O)N[C@H](CCCNC(=N)N)C(=O)N[C@@H](CO)C(=O)N[C@H]([C@H](C)O)C(=O)N[C@H](Cc2c[nH]c3ccccc23)C(=O)N[C@@H]([C@@H](C)CC)C(=O)NCC(=O)O[C@@H]1C
conditions = together with: menaquinone 0 µg/mL; result = 8 µg/mL (≈ 5.27 µM)
conditions = together with: menaquinone 2 µg/mL; result = 32 µg/mL (≈ 21.1 µM)
conditions = together with: menaquinone 0.125 µg/mL; result = 16 µg/mL (≈ 10.5 µM)
conditions = together with: ubiquinone 64 µg/mL; result = 8 µg/mL (≈ 5.27 µM)
conditions = together with: menaquinone 8 µg/mL; result = 64 µg/mL (≈ 42.1 µM)
conditions = together with: menaquinone 0.5 µg/mL; result = 16 µg/mL (≈ 10.5 µM)
conditions = together with: menaquinone 1 µg/mL; result = 32 µg/mL (≈ 21.1 µM)

Sample 2 — read-out: cell-free assay; technique: competition with immobilised ligand; concentration: 1 µM; endpoint: remaining binding
SMILES: Cn1cncc1[C@](O)(COc1ccc(C#N)cc1-c1ccc(OC(F)(F)F)cc1)c1ccc(C#N)cc1
target = Mast/stem cell growth factor receptor Kit, autoinhibited (KIT, Homo sapiens, UniProt P10721); result = 95%
target = CDKL2 (Homo sapiens, UniProt Q92772); result = 88%
target = LRRK2 (Homo sapiens, UniProt Q5S007); result = 100%
target = STK24 (Homo sapiens, UniProt Q9Y6E0); result = 90%
target = STK38 (Homo sapiens, UniProt Q15208); result = 75%
target = PLK4 (Homo sapiens, UniProt O00444); result = 94%

Sample 3 — organism: Plasmodium berghei; mode: inhibitor; cells: Huh-7; strain: liver stage; concentration: 10 µM; time: 24 h; reference: untreated control; endpoint: infection rate
Compound = NC(=O)C[S+]([O-])C(c1ccccc1)c1ccccc1 (stereo not drawn); result = 77.2%
Compound = CCOC(=O)CC(SP(=S)(OC)OC)C(=O)OCC (stereo not drawn); result = 100%
Compound = C[N+]1(C)[C@@H]2CC[C@H]1C[C@@H](OC(=O)C(CO)c1ccccc1)C2 (stereo partly drawn); result = 103%
Compound = N#Cc1nn(-c2c(Cl)cc(C(F)(F)F)cc2Cl)c(N)c1[S+]([O-])C(F)(F)F (stereo not drawn); result = 98.9%
Compound = O=P1(NCCCl)OCCCN1CCCl (stereo not drawn); result = 78.1%

Sample 4 — organism: Cryptosporidium parvum; host: neonatal calves; dose: dose not given; reading: direction not given; endpoint: fecal consistency score
SMILES: CNC(=O)c1ccc(-c2cnn3ccc(C(=O)N(C)c4ccc(Cl)c(C(=O)OC)c4)cc23)cc1
conditions = day 3 post-treatment; result = 2 and 3 and 1
conditions = day 8 post-treatment; result = 1 and 2 and 3
conditions = day 6 post-treatment; result = 1 and 2

Repeated from above (sample 1):
conditions = together with: menaquinone 0.125 µg/mL; result = 16 µg/mL (≈ 10.5 µM)
conditions = together with: ubiquinone 64 µg/mL; result = 8 µg/mL (≈ 5.27 µM)
conditions = together with: menaquinone 8 µg/mL; result = 64 µg/mL (≈ 42.1 µM)
